# Assay results from different studies.
# Parts stem from different laboratories: compare values within a part only. Substitutions count along the parent as printed.

# Series 1 — target: CCNA1, cyclin fold, Cln2 fusion (human); technique: yeast growth competition, sequencing; matrix: yeast; notes: strong parent motif; relative to: not given; reading: higher = stronger binding
# Parent: E2F1 docking peptide (human); PPVKRRLDFETDH; partner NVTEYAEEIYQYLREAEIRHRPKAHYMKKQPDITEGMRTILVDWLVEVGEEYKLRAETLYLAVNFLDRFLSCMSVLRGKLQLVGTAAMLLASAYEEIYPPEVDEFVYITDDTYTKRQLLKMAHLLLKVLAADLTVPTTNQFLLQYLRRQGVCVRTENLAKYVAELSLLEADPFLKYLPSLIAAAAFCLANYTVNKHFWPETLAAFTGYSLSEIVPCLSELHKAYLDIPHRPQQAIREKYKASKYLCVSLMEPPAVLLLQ
Change,normalised enrichment score
PPVIRRLDFETDH [K4I],0.724
PPVKRRLDTETDH [F9T],0.184
PPVCRRLDFETDH [K4C],0.884
PPVKRTLDFETDH [R6T],1.21
PPVKRRLDNETDH [F9N],0.273
PYVKRRLDFETDH [P2Y],1.85
PPVKPRLDFETDH [R5P],-0.243
PPVKRRLEFETDH [D8E],1.6
PPVKRRTDFETDH [L7T],0.239
PPVKRRFDFETDH [L7F],-0.0379
PTVKRRLDFETDH [P2T],1.77
PPVKRRLDFETPH [D12P],2.07
PPVDRRLDFETDH [K4D],0.289
PPVKRRLDFITDH [E10I],1.42
PPVFRRLDFETDH [K4F],0.633
PPRKRRLDFETDH [V3R],0.812
PGVKRRLDFETDH [P2G],2.03
PNVKRRLDFETDH [P2N],1.86

# Series 2 — technique: protein-binding microarray; molecule type: double-stranded DNA, one strand shown; matrix: in vitro; concentration: not given; reading: higher = stronger binding
# Target: Max-binding protein MNT, bHLH-zipper, MAX partner unstated (MNT, Homo sapiens, UniProt Q99583, residues 220-300)
# Notes: k-mer, scored over probes, only values ≥0.25
# Residues (chain): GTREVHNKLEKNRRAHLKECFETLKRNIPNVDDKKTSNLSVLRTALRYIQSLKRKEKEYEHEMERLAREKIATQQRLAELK
Strand,E-score
CATGTTGG,0.29
CTCATGTC,0.331
CCAGCACG,0.343
GACCACGA,0.331
GTGTGCGA,0.27
CACATGTA,0.467
CGTGCAGA,0.349
CTCCCGCC,0.255
ACCATGGT,0.27
AACGTGCA,0.424
AGGCCACG,0.318
GCACGCTA,0.372
CAGGAACG,0.26

# Series 3 — technique: protein-binding microarray; molecule type: double-stranded DNA, one strand shown; matrix: in vitro; concentration: 940 nM top; notes: 60-bp whole probe; added: salmon DNA 0.4 mg/ml; relative to: random background probes; reading: higher = stronger binding; constant ends, left off below: GCCTAGCAC … GTCTTGATTCGCTTGACGCTGCTG
# Target: Interferon regulatory factor 5, full length, phosphomimetic (IRF5, Homo sapiens, UniProt Q13568-2, residues 1-514, S451D/S453D/S456D/S462D)
Strand,fitted relative affinity [z-score]
TTAAGACTGGGTATCGGTTAGTGCTAG,3.51
ACCCGAGTCCCTATCTCCTCGTGCTAG,0.0159
GACGGTAGCGGGTTTCGGGACGTGCTA,2.13
CTAGATTTCAGTATCGATTAGTGCTAG,6.09
GACGAGCTCAGTTTCGAGACGTGCTAG,3.99
GACGGTTTCGACAATGGGGACGTGCTA,6.91
GACGGACTGGGACTGGTGACGTGCTAG,-0.639
GACGGTATCGACTATCGGCACGTGCTA,4.54
GACCGTATCGGTATCGGGACGTGCTAG,5.89
CCAACACTCGGTTTCCAAATGTGCTAG,0.357
GTGTGTTTGTGTGTGTATGTGTGCTAG,0.825
GACGGTATGGGTATCGGGACGTGCTAG,0.912
TCTCTTTCCTTACTTCCCAATGTGCTA,3.7
GACGGTATCGGTCTCGGGTCGTGCTAG,9.38
TTATGTTTCGGGTTTCGGTTAGTGCTA,8.6

# Series 4 — technique: competition protein-binding microarray; molecule type: double-stranded DNA, one strand shown; matrix: in vitro; concentration: 2 µM; added: Cbf1 competitor, 0.05 µM; reading: higher = stronger binding; constant ends, left off below: … GTCTTGATTCGCTTGACGCTGCTG
# Target: Phosphate system positive regulatory protein PHO4, full length, GST-tagged (PHO4, Saccharomyces cerevisiae, UniProt P07270, residues 1-312)
# Notes: whole 60-bp probe, lowest competitor level
# Target sequence (chain): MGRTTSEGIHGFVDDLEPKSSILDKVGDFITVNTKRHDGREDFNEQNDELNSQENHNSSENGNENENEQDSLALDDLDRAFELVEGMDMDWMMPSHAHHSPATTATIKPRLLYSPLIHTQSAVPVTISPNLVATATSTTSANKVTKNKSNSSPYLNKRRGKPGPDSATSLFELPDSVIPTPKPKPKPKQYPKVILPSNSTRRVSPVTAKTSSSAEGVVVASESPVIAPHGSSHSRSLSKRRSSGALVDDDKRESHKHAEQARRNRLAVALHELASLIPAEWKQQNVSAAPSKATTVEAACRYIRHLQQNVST
Strand,fluorescence intensity
CTTCTGTAAATTTGCGACGTGGGTGGACGCGCCCCG,6840 a.u.
TCCGTACTACTGGCGTACGTGCGATGAATTAATCGG,7800 a.u.
ATCCCAATACAATTTAACGTGGGACCACCTACCATG,7870 a.u.
AAAGCGGTAATTTGATTGGTGGGTGCAGATATCTAT,3960 a.u.
AGGCTCGCTGGTCAACACATGCTGTGAGCAGGCCTG,8820 a.u.
CGGAATTCCTGAACCGCCGTGACTCGGAGAATAAAT,3910 a.u.
TAAGGCCTCGGCTGGCACATGAGTCGCCGGAGGAGG,5880 a.u.
CTGTATACCTAATGAATCGTGGGTATTGTCTTCGTC,7160 a.u.
ACAACTATAATGGATGACATGATGAATATGTAGTGG,6040 a.u.
TCAGATGCGCTGATGGGCGTGCTTTACACCCATCAG,7000 a.u.
CGGACCCCGTCTTAGCACACGCAGACGCAGACGCAG,7010 a.u.
TTGGGTGATGTTTTGCATGTGTGCTGCCCAAGTTGA,8520 a.u.
AGTTTCAGAGGTGGACACATGGGAGCCAACAGCTCA,9320 a.u.
CAGCAGCCTTGCCATCACGCTTAGCTTGAATGATGT,5450 a.u.

# Series 5 — technique: RNA Bind-n-Seq; molecule type: RNA; matrix: in vitro; concentration: 365 nM; relative to: no-protein control; reading: higher = stronger binding
# Target: RNA binding protein fox-1 homolog 2, RRM domain, GST-SBP tag (RBFOX2, Homo sapiens, UniProt O43251-10, residues 100-194)
# Notes: natural RNA segment, single round, ends assumed
# Constant ends, left off below: GGGAGUUCUACAGUCCGACGAUC … UGGAAUUCUCGGGUGCCAA
# Residues (chain): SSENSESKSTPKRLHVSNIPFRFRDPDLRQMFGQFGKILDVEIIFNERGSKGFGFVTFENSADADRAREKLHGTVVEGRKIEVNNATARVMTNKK
Strand,RBNS enrichment (R)
CCCUGGCCCUGCCCCGCCAUCUGCUUUCACCAAGCUGUCUCUCCACCGUGGCUUCCCUUCUCCCUCCAGGCCAAAGUGCUGCUGAUUCCCACUCCCUUGGUUUUCGCCUG,0.756
CACCAUGGAUACUCGCCCGUGGGCAGGGCUGUGGUCAGCCAAGAAUAGAGGUCAUAUAGUUGGGCCAUGGGGCAAUUGUUGGCAGCCAUGACUGACGGCCCCUUGUGCAA,0.561
CCCAAAGUACGGGUAAUUCAACCUGCACAGUUUUCUUUCACUCAAAGUGUUCAGCACUUGUGAGUGAAAAAUCAUGUAAUUAUCUGUAAAUAUGUAGCUAACAAAUUGAC,0.533
UUAGGUCUGUGUCCUGCACAGUGUUCAAAACCAUUAAAUGUGUUCUUUGUAGCAGGAUGGUACACAGCCAUCAGCAGAAUGAGUUAAAACCAACAAUGAAUUCAAUAUAC,0.438
UCACCAGGGUUGACUGCCUUCAGGAAAUGCUGGCCCCAAAGGAUUUGAGGAAAACUUGACUGUCAGGCUAGCUGACUCUAGCUUUAUUUCUGCUGCCAGGAAGCACAGUU,0.413
AUUUCCUGCACUGGGUUGUGCGUGUGUGUGUGUGUGCGCGUGUAUGUGCGUGUGUGUGCGCGUGUGUGUUAUUGUUUAAAUUGUAUUCACAGUGUUGUUUGCCUUGCUCA,1.84
UAACAGCUCCAACAAUUUCAGAUCCAUGGGGCUGCUUGACCAUAGACCCUGUUUACUCCAUGCCUGUUCAAAAGUCAUUUUGACUUCUAGCUUUGUUUCACUUUCUUCUU,2.78
AAAAGGAUUCAAACGCAACUCAAAUCUGUGCUGGACUUUUGAAAAACCACAAUUCAGGACCAAAUUUUUUCUCCGUGUGUGUUUAUUCCUUAUAGGUGUAAUUGAGAAGA,0.516
UUGAGCUACAUCUUGUUGAGCAAGGGGAGUGAAACCACAGAAACUGUUAAAUUGAACGUAAAUAACUUUGGAAAACAGUUUUGACACUAGAACAAGGUCGCUUCUCUUUU,0.376
UUCUUUUGUCUUUUAGCUAAAGGAAAAGCAUUGGCGAUUUGUCUGAUUCUGGUUUUGAGUUACUCUUUGUUCAGUAAUGCACUUUAUUUUAUUGUCCAAAGAGAGUCAGA,1.03
ACUAAAGUGCCCGGUUUUAGCCACAGACAACUGCUUAGAUGUCACCUCUUGGCUGACCAAAGCUGGGACAGGGCUUUAACCAGACAUAGGAGCAGUGUGCAAUUCCUGAU,0.342
GUCUACAAGUUUCUACUUUCUUGUUUGAUUGAGCAAAGUCUCCUAGUGACAGCAACACCAUGAAUUUUACUUCUCUUGGGUGGUUCUGGGAAUGGGAGAGGGGCAAGCUG,0.387

# Series 6 — technique: universal PBM; molecule type: double-stranded DNA, one strand shown; matrix: in vitro; concentration: 600 nM; reading: higher = stronger binding
# Target: Sal-like protein 4, full length isoform A (SALL4, Homo sapiens, UniProt Q9UJQ4, residues 1-1053)
# Sequence of UniProt Q9UJQ4 (whole entry, looked up): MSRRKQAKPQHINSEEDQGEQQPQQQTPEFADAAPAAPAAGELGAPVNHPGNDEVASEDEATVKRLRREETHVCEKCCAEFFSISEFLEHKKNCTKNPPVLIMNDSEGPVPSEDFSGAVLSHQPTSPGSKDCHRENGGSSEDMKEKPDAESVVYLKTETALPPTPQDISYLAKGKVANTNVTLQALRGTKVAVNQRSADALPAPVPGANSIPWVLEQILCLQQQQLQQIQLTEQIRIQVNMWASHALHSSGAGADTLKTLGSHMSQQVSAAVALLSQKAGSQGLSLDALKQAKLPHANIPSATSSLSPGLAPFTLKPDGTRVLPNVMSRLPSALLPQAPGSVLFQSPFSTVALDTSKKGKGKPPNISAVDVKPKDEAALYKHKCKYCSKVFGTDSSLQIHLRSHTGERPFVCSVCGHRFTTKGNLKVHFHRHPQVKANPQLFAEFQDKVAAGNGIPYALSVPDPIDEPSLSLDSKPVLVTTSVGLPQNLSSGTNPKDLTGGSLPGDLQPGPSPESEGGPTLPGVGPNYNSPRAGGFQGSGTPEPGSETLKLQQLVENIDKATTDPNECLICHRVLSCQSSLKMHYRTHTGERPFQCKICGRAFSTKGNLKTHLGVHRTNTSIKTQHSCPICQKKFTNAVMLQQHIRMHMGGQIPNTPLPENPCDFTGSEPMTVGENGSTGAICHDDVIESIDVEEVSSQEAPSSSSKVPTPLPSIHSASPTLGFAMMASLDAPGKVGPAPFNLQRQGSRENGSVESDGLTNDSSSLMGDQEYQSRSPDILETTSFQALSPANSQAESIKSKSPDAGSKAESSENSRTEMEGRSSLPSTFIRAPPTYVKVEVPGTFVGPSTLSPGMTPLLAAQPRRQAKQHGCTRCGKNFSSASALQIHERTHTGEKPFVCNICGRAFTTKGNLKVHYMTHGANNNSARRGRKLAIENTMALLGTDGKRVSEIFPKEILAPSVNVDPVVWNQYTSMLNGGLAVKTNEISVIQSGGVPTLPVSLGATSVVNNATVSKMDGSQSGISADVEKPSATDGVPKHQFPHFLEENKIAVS
# Notes: 8-mer, flanks averaged, mean of replicates
Strand,E-score
ACTCATAG,0.148
CAAATTAG,0.212
GATTCGAA,0.0769
GGCATGCC,-0.31
CCCCTTGA,-0.0782
AAAGTCCT,-0.188
AACATCAA,0.243
AGTGCACA,-0.0942
CTACATAG,0.149
CGGAGCAA,0.00642
CGATAACA,0.135
AGGTACGA,0.0744
AGTAGCAG,0.0371
AATGCAAA,0.305
GAAGACTA,0.042
ACAATCCA,0.214
ATCTATCA,0.223
ACCTGCAC,-0.135
ATGTGAAG,0.287
CACCCAAC,-0.211
AAGCCAAT,0.172
GAACCGTC,-0.0437
AGGAGTTG,0.0602
GGTTTTGA,0.137
ATGAGGAA,0.218

# Mixed results
Strand,target,assay,system,quantity,result
GGAGTGCGCACTCC (dsDNA),"KAT6A 1-85 (Homo sapiens, UniProt Q92794)",ITC,"double-stranded DNA, one strand shown",binding,binds

# Repeated from above (series 2):
Strand,E-score
CGTGCAGA,0.349
CTCCCGCC,0.255
ACCATGGT,0.27
AACGTGCA,0.424
AGGCCACG,0.318
GCACGCTA,0.372
